# Assay results of several laboratories.
# Parts stem from different laboratories: compare values within a part only. “And” joins repeats or separate records; there may be more than shown.
# UniProt Q9UQM7, sequence (whole entry, looked up): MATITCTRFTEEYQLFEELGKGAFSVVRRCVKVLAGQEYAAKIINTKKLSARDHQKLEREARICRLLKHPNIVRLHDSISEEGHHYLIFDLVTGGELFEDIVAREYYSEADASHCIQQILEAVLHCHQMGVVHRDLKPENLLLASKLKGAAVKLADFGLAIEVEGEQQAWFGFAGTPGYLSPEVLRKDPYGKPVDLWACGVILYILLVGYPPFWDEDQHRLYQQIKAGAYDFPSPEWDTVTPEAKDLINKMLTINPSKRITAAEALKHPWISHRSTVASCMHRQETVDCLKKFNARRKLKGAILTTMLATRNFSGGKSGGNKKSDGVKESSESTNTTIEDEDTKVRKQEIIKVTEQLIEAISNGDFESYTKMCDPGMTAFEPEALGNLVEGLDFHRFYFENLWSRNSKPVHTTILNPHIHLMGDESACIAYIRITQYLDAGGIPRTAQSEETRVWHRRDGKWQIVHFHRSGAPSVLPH
# UniProt Q9NQU5, sequence (whole entry, looked up): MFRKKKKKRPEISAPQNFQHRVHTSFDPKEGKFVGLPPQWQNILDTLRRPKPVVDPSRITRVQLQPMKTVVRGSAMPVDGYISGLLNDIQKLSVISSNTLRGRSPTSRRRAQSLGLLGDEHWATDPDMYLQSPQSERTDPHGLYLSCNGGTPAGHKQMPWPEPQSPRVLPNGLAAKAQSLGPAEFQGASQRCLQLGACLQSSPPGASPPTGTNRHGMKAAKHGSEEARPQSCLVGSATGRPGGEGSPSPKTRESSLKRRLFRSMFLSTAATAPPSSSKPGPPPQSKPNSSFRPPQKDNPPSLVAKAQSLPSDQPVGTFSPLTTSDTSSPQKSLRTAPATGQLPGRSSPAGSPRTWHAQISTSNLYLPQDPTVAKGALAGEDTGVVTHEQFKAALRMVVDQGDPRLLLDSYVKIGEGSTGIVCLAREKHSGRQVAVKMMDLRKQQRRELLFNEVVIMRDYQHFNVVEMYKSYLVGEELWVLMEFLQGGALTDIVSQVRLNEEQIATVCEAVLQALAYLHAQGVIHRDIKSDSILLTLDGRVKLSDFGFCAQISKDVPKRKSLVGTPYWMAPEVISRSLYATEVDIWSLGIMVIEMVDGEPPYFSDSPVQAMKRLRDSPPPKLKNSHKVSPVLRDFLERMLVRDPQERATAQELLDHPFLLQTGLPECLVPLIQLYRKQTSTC
# UniProt Q8NFD2, sequence (whole entry, looked up): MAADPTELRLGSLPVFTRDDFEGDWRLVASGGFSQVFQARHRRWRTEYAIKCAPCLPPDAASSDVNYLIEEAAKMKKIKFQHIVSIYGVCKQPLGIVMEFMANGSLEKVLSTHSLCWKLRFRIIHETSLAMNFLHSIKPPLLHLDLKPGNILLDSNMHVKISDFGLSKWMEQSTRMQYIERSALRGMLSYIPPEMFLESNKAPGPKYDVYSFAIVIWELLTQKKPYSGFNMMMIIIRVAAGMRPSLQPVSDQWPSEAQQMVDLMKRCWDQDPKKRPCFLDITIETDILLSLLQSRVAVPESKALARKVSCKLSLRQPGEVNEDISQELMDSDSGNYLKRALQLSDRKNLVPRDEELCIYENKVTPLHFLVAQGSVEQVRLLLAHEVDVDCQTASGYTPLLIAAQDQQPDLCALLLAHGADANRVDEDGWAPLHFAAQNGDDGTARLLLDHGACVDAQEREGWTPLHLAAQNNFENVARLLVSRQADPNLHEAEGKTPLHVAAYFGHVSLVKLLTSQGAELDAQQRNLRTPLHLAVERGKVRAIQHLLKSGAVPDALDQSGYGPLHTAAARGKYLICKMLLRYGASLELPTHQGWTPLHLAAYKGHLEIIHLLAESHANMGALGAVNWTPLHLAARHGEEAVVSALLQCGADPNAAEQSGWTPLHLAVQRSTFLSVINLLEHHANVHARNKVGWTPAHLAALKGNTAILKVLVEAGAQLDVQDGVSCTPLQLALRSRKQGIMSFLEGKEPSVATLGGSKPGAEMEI
# UniProt P08631, sequence (whole entry, looked up): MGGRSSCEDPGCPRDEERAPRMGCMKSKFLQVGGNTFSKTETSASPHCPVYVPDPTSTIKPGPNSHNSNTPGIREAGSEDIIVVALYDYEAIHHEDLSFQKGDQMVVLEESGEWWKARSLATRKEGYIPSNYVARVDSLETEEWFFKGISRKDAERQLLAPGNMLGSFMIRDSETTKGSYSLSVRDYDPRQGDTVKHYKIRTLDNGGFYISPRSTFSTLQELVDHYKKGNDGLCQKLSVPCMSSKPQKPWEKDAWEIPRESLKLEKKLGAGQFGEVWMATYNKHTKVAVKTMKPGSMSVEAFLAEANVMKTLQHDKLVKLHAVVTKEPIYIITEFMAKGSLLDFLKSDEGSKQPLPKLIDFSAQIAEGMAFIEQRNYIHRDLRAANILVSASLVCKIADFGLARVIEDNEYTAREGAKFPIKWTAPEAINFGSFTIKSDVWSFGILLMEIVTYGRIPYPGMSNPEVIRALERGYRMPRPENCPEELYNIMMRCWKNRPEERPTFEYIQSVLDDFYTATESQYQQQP

# Set 1
# Structure (SMILES): CO[C@@H]1[C@H](N(C)C(=O)c2ccccc2)C[C@H]2O[C@]1(C)n1c3ccccc3c3c4c(c5c6ccccc6n2c5c31)C(=O)NC4
# Mode: inhibitor
# Concentration: 1 µM
target,effect on,inhibition
"PRKAA1 (Homo sapiens, UniProt Q13131)",enzyme activity,91%
"MAPK11 (Homo sapiens, UniProt Q15759)",enzyme activity,0%
"EIF2AK1 (Homo sapiens, UniProt Q9BQI3)",enzyme activity,0%
"RIOK2 (Homo sapiens, UniProt Q9BVS4)",enzyme activity,11%
"HCK (Homo sapiens, UniProt P08631)",enzyme activity,45%
"Ribosomal protein S6 kinase alpha-5, C-terminal kinase domain (RPS6KA5, Homo sapiens, UniProt O75582)",,17%
"SGK2 (Homo sapiens, UniProt Q9HBY8)",enzyme activity,98%
"PAK6 (Homo sapiens, UniProt Q9NQU5)",enzyme activity,5%
"EPHA5 (Homo sapiens, UniProt P54756)",enzyme activity,0%
"WNK2 (Homo sapiens, UniProt Q9Y3S1)",enzyme activity,5%

# Set 2
# Structure (SMILES): CCC(=O)N[C@H]1CC[C@@H](C(=O)N(C)c2ccc(-c3nc4ccccc4o3)cc2)C1
# Effect on: cell-free assay
# Method: competition with immobilised ligand
# Concentration: 1 µM
target,remaining binding
"Tyrosine-protein kinase ABL1, phosphorylated (ABL1, Homo sapiens, UniProt P00519, Q252H)",78%
"TIE1 (Homo sapiens, UniProt P35590)",100%
"MAP3K11 (Homo sapiens, UniProt Q16584)",93%
"CAMK1D (Homo sapiens, UniProt Q8IU85)",100%
"ANKK1 (Homo sapiens, UniProt Q8NFD2)",66%
"MARK4 (Homo sapiens, UniProt Q96L34)",100%
"DYRK1B (Homo sapiens, UniProt Q9Y463)",100%
"FLT3 (Homo sapiens, UniProt P36888, D835H)",95%
"Ribosomal protein S6 kinase alpha-2, C-terminal kinase domain (RPS6KA2, Homo sapiens, UniProt Q15349)",100%
"STK24 (Homo sapiens, UniProt Q9Y6E0)",95%
"FLT3 (Homo sapiens, UniProt P36888, R834Q)",100%
"TRPM6 (Homo sapiens, UniProt Q9BX84)",76%
"MAP3K6 (Homo sapiens, UniProt O95382)",76%
"CHEK1 (Homo sapiens, UniProt O14757)",100%
"GRK2 (Homo sapiens, UniProt P25098)",66%
"CDK13 (Homo sapiens, UniProt Q14004)",100%
"CAMK2A (Homo sapiens, UniProt Q9UQM7)",94%

# Set 3
# Target: Calcium/calmodulin-dependent protein kinase type II subunit alpha (CAMK2A, Homo sapiens, UniProt Q9UQM7)
# Effect on: enzyme activity
# Mode: inhibitor
# Concentration: 10 µM
Structure (SMILES),inhibition [%]
O[C@@H]1CO[C@H]2[C@@H]1OC[C@@H]2O,-11
CSc1ccc(OCc2ncc([N+](=O)[O-])n2C)cc1,-6
O=c1ccc2cc(O)ccc2o1,15
CCC(=O)OC(CC(=O)[O-])C[N+](C)(C)C (stereo not drawn),13
CCN(C(=O)c1c(O)c2c(Cl)cccc2n(C)c1=O)c1ccccc1,-7
CC(C)Nc1nc2cc(Cl)c(Cl)cc2n1[C@H]1O[C@@H](CO)[C@H](O)[C@@H]1O,-10
C[C@@H](O)[C@@H]1NC(=O)[C@H](CCCCN)NC(=O)[C@@H](Cc2c[nH]c3ccccc23)NC(=O)[C@H](Cc2ccc(O)cc2)NC(=O)[C@@H](NC(=O)[C@@H](Cc2ccccc2)NC(=O)CN2CCN(CC(=O)O)CCN(CC(=O)O)CCN(CC(=O)O)CC2)CSSC[C@@H](C(=O)N[C@H](CO)[C@@H](C)O)NC1=O,-9
CC(=O)NCCCCCC(=O)O,-11
O=C[C@H](O)[C@@H](O)[C@H](O[C@H]1O[C@H](CO)[C@@H](O[C@H]2O[C@H](CO)[C@@H](O)[C@H](O)[C@H]2O)[C@H](O)[C@H]1O)[C@H](O)CO,5

# Set 4
# Target: DNA polymerase theta, ATPase domain (POLQ, Homo sapiens, UniProt O75417)
# UniProt O75417, sequence (whole entry, unmodified, looked up): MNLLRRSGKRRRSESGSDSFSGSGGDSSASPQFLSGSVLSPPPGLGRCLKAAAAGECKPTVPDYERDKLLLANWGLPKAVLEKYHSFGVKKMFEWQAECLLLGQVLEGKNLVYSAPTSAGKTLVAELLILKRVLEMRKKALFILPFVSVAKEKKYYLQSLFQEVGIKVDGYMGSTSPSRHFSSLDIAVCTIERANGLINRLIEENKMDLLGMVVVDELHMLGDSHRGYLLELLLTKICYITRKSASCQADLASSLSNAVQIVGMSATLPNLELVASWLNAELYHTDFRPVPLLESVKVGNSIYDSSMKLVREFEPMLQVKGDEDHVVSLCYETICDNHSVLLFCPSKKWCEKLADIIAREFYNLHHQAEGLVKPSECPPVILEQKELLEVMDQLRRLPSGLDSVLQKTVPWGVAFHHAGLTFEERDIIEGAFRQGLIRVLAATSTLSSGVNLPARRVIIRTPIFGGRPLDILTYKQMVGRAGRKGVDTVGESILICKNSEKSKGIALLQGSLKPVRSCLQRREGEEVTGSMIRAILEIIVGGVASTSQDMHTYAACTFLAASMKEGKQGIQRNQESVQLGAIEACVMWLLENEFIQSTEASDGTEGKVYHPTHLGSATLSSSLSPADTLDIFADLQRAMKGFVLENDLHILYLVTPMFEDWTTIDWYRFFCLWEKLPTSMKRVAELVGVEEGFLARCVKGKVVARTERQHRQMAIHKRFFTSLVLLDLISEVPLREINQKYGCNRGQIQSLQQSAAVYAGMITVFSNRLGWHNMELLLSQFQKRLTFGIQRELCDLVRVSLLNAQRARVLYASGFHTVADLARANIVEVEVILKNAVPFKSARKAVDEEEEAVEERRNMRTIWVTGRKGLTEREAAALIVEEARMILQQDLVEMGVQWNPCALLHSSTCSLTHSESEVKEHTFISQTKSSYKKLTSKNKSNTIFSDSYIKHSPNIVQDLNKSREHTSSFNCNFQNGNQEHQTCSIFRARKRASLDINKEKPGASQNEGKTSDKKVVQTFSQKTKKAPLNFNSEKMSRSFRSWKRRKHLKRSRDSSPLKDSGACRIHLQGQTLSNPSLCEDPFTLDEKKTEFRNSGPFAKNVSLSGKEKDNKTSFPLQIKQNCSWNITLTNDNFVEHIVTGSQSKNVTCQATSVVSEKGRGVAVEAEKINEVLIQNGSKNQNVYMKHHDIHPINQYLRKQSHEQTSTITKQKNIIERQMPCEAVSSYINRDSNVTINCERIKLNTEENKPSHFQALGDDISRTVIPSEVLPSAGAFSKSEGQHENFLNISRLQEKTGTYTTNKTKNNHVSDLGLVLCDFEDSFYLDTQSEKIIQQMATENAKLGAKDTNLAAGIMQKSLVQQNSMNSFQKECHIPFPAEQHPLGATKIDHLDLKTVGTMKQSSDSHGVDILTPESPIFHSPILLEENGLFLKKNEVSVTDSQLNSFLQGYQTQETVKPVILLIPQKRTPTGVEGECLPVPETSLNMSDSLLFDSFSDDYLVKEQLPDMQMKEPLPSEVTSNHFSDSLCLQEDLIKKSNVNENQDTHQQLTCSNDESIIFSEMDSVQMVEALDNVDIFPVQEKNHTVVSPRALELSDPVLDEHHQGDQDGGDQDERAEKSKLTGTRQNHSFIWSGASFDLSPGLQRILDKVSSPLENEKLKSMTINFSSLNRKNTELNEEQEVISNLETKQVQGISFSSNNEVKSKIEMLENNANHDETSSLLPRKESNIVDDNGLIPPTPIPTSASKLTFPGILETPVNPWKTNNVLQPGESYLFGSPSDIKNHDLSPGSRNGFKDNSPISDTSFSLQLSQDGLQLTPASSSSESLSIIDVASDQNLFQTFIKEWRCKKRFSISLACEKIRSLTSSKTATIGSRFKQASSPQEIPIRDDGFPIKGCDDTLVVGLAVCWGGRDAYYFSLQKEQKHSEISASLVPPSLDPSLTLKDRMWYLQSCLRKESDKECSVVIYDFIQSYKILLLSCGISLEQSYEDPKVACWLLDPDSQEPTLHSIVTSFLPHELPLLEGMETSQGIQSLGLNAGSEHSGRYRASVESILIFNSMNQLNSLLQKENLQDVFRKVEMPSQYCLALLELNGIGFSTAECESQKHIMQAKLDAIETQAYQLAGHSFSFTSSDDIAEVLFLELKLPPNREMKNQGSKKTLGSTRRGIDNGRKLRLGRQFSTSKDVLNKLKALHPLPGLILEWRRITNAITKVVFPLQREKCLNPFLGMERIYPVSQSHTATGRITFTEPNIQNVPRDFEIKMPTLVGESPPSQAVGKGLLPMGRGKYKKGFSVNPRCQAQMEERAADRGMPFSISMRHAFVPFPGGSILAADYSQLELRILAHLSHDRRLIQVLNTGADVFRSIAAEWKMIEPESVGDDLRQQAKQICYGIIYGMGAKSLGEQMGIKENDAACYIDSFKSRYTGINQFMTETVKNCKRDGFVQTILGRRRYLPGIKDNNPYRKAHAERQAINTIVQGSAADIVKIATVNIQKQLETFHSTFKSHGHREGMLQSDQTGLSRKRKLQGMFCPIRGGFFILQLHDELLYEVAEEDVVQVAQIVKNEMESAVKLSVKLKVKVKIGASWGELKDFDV
# Effect on: enzyme activity
# Mode: inhibitor
# Concentration: 77 µM
# Relative to: untreated
SMILES,remaining activity
O=C(O)c1cc(/N=N/c2ccc(S(=O)(=O)Nc3ccccn3)cc2)ccc1O,91.6% and 93.4%
CCc1oc2ccccc2c1C(=O)c1cc(Br)c(O)c(Br)c1,97% and 90.3%
CCn1c(-c2nonc2N)nc2c(C#CC(C)(C)O)ncc(OC[C@H]3CCCNC3)c21,95.2% and 93.7% and 85.7% and 83.5%
CC(=O)N[C@@H](CC(=O)N[C@@H](CCC(=O)O)C(=O)O)C(=O)O,95.5%
CC(C)(NS(=O)(=O)c1ccc(Oc2ccc(F)cc2)cc1)C(=O)NO,95.6%
CC1=NN(c2ccccc2)C(=O)C1,98.9%
CNC[C@H](O)[C@@H](O)[C@H](O)[C@H](O)CO,102% and 95.8%
O=C(O)CCNC(=O)c1ccc(/N=N/c2ccc(O)c(C(=O)O)c2)cc1,93.8%
Brc1c(Br)c(Br)c2n[nH]nc2c1Br,116%

# Some of these lines once more (set 2):
target,remaining binding
"TIE1 (Homo sapiens, UniProt P35590)",100%
"MAP3K11 (Homo sapiens, UniProt Q16584)",93%
"CAMK1D (Homo sapiens, UniProt Q8IU85)",100%
"ANKK1 (Homo sapiens, UniProt Q8NFD2)",66%
